Measurements pooled from the literature.
Protocols differ between the studies behind these lines. ± gives the spread as reported.

C[C@@H]1CCC[C@H](n2cnc(-c3cc(Cl)ccc3-n3cc(Cl)nn3)cc2=O)c2cc(ccn2)-c2c(cnn2C(F)F)NC1=O
half-life (human, fasted; 200 mg once daily, day 14): 792 min

N#Cc1ccc(COc2cccc(C3CCN(Cc4nc5ccc(C(=O)O)cc5n4C[C@@H]4CCO4)CC3)n2)c(F)c1
half-life (human, plasma; oral): 258 to 366 min

CCc1cnn2c(NCc3ccc[n+]([O-])c3)cc(N3CCCC[C@H]3CCO)nc12
half-life (human, plasma; intravenous, dose not given): 139 to 177 min

COC(=O)c1ccc2c(c1)NC(=O)/C2=C(\Nc1ccc(N(C)C(=O)CN2CCN(C)CC2)cc1)c1ccccc1
half-life (human, hepatic impairment Child-Pugh B, plasma; oral, 100 mg single dose, geometric mean): 2530 min

CC(C)(Sc1ccncc1-c1ccc(C#N)c2ccccc12)C(=O)O
half-life (human; oral, 15 mg, added: febuxostat 40 mg): 636 min

O=c1[nH]c(=O)c(Cc2cccc(C(F)(F)F)c2)c([C@H]2CC[C@H](c3ccccc3)CC2)[nH]1
half-life (human, fasted, plasma; oral, 100 mg single dose, geometric mean): 1300 min

O=CC[C@@H](O)[C@H](O)[C@H](O)CO
half-life (HPLC-fluorescence; human patients, plasma; oral, 60 mg/kg/day, cycle 2): 366 ± 234 min

CCOC(=O)C1=C[C@@H](OC(CC)CC)[C@H](NC(C)=O)[C@@H](N)C1
half-life (healthy Indian human, plasma; oral, 75 mg single, test capsule fed): 289 ± 131 min

CS(=O)(=O)n1cc2c(n1)CN([C@H]1CO[C@H](c3cc(F)ccc3F)[C@@H](N)C1)C2
half-life (healthy male human, plasma; oral, 200 mg single, fasted, geometric mean): 2710 min

CCCOc1ccc(S(=O)(=O)NCCC2CCCN2C)cc1-c1nc2c(CCC)nn(C)c2c(=O)[nH]1 (stereo not drawn)
half-life (human, plasma; oral, dose not given): 600 to 780 min

CC[C@@H]1C(=O)N(C)c2cnc(Nc3ccc(C(=O)N[C@H]4CC[C@H](N5CCN(CC6CC6)CC5)CC4)cc3OC)nc2N1C(C)C
half-life (human, plasma; intravenous infusion, 100 mg over 2 h, first infusion, geometric mean): 10700 min

CC(=O)O[C@H]1C(=O)[C@@]2(C)[C@H]([C@H](OC(=O)c3ccccc3)[C@]3(O)C[C@H](OC(=O)[C@H](O)[C@@H](NC(=O)c4ccccc4)c4ccccc4)C(C)=C1C3(C)C)[C@]1(OC(C)=O)CO[C@@H]1C[C@@H]2O
half-life (non-compartmental; human patients, plasma; intravenous, 200 mg/m^2, added: lenvatinib 6 mg twice daily): 406 ± 25.2 min

Cc1ccc(NC(=O)c2ccc(CN3CCN(C)CC3)cc2)cc1Nc1nccc(-c2cncc(-c3oncc3C)c2)n1
half-life (older healthy human adults, plasma; oral, 12.5 mg single dose, fed, mean): 1500 min

NC1(c2ccc(-c3nc4ccn5c(=O)[nH]nc5c4cc3-c3ccccc3)cc2)CCC1
half-life (human; oral, 135 mg, expansion, added: dinaciclib 9 mg/m^2): 3800 ± 1180 min

CN[C@@H]1COc2c(S(=O)(=O)NC(=O)Nc3c4c(cc5c3CCC5)CCC4)cnn2C1
half-life (human; oral, 900 mg twice daily, day 7): 402 min

C[C@H](N)C(=O)N1C[C@H](CCCB(O)O)[C@](N)(C(=O)O)C1
half-life (human, plasma; oral, dose not given, cycle 1 day 1, all doses pooled): 336 ± 60 min

CCCCC1(CCCC)CN(c2ccccc2)c2cc(SC)c(OCC(=O)N[C@@H](C(=O)NCC(=O)O)c3ccccc3)cc2S(=O)(=O)C1
half-life (LC-MS/MS; human, plasma; oral, 5 mg, single dose, before breakfast): 158 min

CNc1nc(Nc2ccc(-n3cnc(C)n3)c(OC)c2)nc2c1CC[C@H]2c1ccc(F)cc1
half-life (elderly humans, both sexes, plasma; oral, 900 mg single dose): 3780 min

Excerpt of the above:
COC(=O)c1ccc2c(c1)NC(=O)/C2=C(\Nc1ccc(N(C)C(=O)CN2CCN(C)CC2)cc1)c1ccccc1
half-life (human, hepatic impairment Child-Pugh B, plasma; oral, 100 mg single dose, geometric mean): 2530 min
